# Assay results pooled from the literature.
# Every numbered part comes from another study and shows a few of its results, in no order. Changes are numbered by the printed parent chain.

# Sample 1 — method: Spec-seq; molecule type: double-stranded DNA, one strand shown; sample: in vitro; concentration: not given; notes: whole probe, mean of replicates; reference: not given; reading: lower = stronger binding; all sequences stand within: GAGTCGTCTCGTCAGCAC … CCGTAGAGCACTCAGGTC
# Target: POU, POU domain (Salpingoeca helianthica)
# Target sequence (chain): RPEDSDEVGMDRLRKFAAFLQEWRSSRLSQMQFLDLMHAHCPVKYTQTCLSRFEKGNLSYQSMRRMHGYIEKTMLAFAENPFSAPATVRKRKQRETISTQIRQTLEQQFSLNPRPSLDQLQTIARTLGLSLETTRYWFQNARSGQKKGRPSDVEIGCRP
Oligonucleotide,relative binding energy [ln ratio]
ATGCGCAA,1.15
ATATGCAT,0.95
ATTCCCAT,0.972
AGCATAAT,0.815
ATGCTATT,1.11
ATACTTAT,0.714
CACATAAT,0.56
CGTCTAAT,0.818
CTAATAAT,-0.641

# Sample 2 — method: DHFR PCA, deep sequencing; sample: yeast; together with: (+)-ABA 0.032 µM; reference: wild-type fitted maximum; reading: higher = stronger binding
# Target: ABI1, truncated, D143A, DHFR fusion (Arabidopsis thaliana)
# Notes: methotrexate growth selection, single substitutions
# Parent: PYL1, truncated, DHFR fusion (Arabidopsis thaliana); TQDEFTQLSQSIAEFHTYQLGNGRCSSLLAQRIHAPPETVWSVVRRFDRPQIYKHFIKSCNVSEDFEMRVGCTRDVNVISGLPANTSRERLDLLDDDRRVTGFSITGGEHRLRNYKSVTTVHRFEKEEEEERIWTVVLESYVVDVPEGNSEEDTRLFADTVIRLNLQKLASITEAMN
Change,relative binding score [%]
H34M,41.3
Q51G,20.1
V161E,3.54
T101R,-2.31
G21Y,-2.43
N149P,-0.206
P83K,14.2
P50Y,-0.126

# Sample 3 — target: CCNB3, cyclin fold, Cln2 fusion (human); method: yeast growth competition, sequencing; sample: yeast; notes: weak parent motif; reference: not given; reading: higher = stronger binding
# Parent: CDAN1 docking peptide (human); RGARSQLFPPTEA
Change,normalised enrichment score
RGARAQLFPPTEA [S5A],0.209
RAARSQLFPPTEA [G2A],0.23
AGARSQLFPPTEA [R1A],0.098
RGARSALFPPTEA [Q6A],-0.157

# Further values, each from its own experiment
Molecule,target,test,system,conditions,how to read,measurement,result
"PhoQ, residues 284 288 289 292 302 303 SSLVEF","PhoP, residues 12 14 15 18 19 NHFRA (Escherichia coli, UniProt P23836)","Sort-seq, measured: YFP reporter",E. coli,"PhoQ-PhoP variant library, together with: 10 µM Mg2+","reference: high Mg2+ state, higher = stronger signaling",fold induction,2.02

# For quick reference, copied from above (sample 2):
Change,relative binding score [%]
V161E,3.54
T101R,-2.31
G21Y,-2.43
N149P,-0.206
